Assay results from different studies.
Every numbered part comes from another study and shows a few of its results, in no order. Positions count from the first letter of the parent shown.

Block 1
Target: Hepatocyte nuclear factor 3-alpha (Foxa1, Mus musculus, UniProt P35582, residues 1-468, full length assumed)
Method: EMSA with sequencing
Form: double-stranded DNA, one strand shown
Matrix: in vitro
Tested at: 10 and 20 nM
Setting: whole designed probe, mean of two concentrations, ends assumed
Baseline: negative control set to 0
Reading: higher = stronger binding
Target sequence (chain): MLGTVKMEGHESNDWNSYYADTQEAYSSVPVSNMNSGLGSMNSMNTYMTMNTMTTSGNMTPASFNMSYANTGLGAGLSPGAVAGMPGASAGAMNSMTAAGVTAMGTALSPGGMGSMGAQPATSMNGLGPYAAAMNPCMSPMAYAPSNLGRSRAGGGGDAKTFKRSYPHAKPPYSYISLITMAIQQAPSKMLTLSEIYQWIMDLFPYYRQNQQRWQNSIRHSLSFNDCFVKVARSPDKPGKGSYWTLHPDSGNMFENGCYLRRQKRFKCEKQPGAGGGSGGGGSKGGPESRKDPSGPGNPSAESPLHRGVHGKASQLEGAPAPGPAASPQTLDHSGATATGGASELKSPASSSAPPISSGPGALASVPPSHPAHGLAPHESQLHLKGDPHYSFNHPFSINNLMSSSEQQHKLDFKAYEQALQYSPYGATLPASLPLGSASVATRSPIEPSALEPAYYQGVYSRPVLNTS
Under “normalised bound fraction”, `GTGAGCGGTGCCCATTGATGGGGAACTTTGGATGTTGTCAGTGGGCAGAGATCAGGTCATGTATGTTTACACAGATGGAACAAAGGATTTTTACCCCTTCAGCCAGATCTGGGACTCAATGTAAACAGCAAGATAACAACACAGGAAGGGTTGCAAACATTGTGCCTAGCACAGGGATGACAGCAGGGCGAATCCTGTAATGTCAAATGTCAGTCAAATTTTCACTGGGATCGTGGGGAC` is recorded as 0.467 ratio.
For `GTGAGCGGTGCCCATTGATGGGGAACAGATATTAAACGCCCAGAGAAAGGCTATAATAAAAAATGCATTTAACTTTTTCAAATCTCTTGTTCCCACATCTACTTGAATGCAGAAACTCTTGTTTGCCTTAATATTTACTTGTATTTTGCAGAACAAATTTTTGCAGAATTCATTTTGGAAAATGCAGCCACTGACAACTGGGATAATTTTCTAAAGGAATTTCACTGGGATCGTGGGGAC`, “normalised bound fraction” read 0.145 ratio.
Under “normalised bound fraction”, `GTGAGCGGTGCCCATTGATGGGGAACATCTTCCCCCTCTTCCTTGCCCCACCAGCTCACCTTCCCGGGTTATTTGCACAAAGGAAAATAAATAAAGCCGGCATTCGTTAACGCAGTTCACGCGCATACTGCTGTTTGCTCTGGATGAATCATGGTCCTTTGGCGAGGCGTGGCTCCGGGAGAGCAAAGCACCGTGTCAGGGCCATGATCCGGGCTCGCCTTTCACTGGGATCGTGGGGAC` is recorded as 0.37 ratio.
For `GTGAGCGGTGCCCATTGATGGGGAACATCTTCCCCCTCTTCCTTGCCCCACCAGCTCACCTTCCCGGGTTATTTGCAGATAGTATTTATTTTCAAGCCGGCATTCGTTAACCCTCTTCTGGCGCAAACTGCCAGAGCAAACAGATGAATCATGGTCCTTTGGCGACGCCAGGCTCCGGGAGAGCAAAGCACCGTGTCAGGGCCATGATCCGGGGTGGCCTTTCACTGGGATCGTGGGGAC`, “normalised bound fraction” read 0.266 ratio.
For `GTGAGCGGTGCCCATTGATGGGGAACGCTATGTTGCCCAGGCTGGTCTTGAACTCCTGGCCTCAGGCTGTCCTCCTGCTTTGGCCTCTCAAAGTGCTGTGATTACAGGCATGAGCCACTGTAATCTCAGTATTTAAATAAGCAATCCTCACACTGGGAGGGAGTGAAGGATGCCCCTCTTTGCCCTGGAAGGTACATCAGAAAAAGCCTACCAGTGGGCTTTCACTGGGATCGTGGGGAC`, “normalised bound fraction” read 0.0926 ratio.
`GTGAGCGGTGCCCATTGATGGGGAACAGGTGAAGTCGGCACCCTTGTCTTTGAGCTCACACAGGTGGCTGAGCTAAATAAGTGCTGAAAGGAGCTGGGTGCACTCTCCTGAGTGTCCTTTGTTGACTCTGGAAGCACTGTAAACTTGGCATCAGAAGGAGATTATAAAGTGCTTTTGTTCCTAAGCTTTATAAAGTGTGTGTGTATGCATGTGGGTTTCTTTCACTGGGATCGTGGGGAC`: “normalised bound fraction” 0.19 ratio.
`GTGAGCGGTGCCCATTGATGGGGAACAGGTGAATTGGCTGCTTCCATCCTGGCTTGGAACTTCAGACATAGAAGCCTTGGGACTTTCTCAGGACTTTCTCCAGATCTGTCACATGCTCAGCAAACAAGCATCTCTGTGGATCACGTGACCCTGACTCATGCTGTTGGTGAAACTGTGTGTTGGTCTAGGTACCTAGCCCATGCTAGGTGCTCATCGAATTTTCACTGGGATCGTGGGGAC` — result for “normalised bound fraction”: 0.0961 ratio.
Under “normalised bound fraction”, `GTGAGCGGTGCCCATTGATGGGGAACAAAGTAATGAAATAAAAAAAACCTGTTAGCCAAGAATCCTATATCTGGCAAAACCATCCTTCAAAAATGAAGGAGAAATTAAGACATTCCTAGATAAACAAACACTGAGGGAGTTCATTGCTAGTTGGCCTGCCCTACAAGAAATACAAAATACTTCAGGCAGAAGTGAAAAAACACTAAATCTTGAAGCCATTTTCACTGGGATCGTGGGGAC` is recorded as 0.418 ratio.

Block 2
Target: RING finger protein unkempt homolog, zinc fingers 1-6, SBP tag (UNK, Homo sapiens, UniProt Q9C0B0, residues 30-357)
UniProt Q9C0B0, sequence (30-357, looked up): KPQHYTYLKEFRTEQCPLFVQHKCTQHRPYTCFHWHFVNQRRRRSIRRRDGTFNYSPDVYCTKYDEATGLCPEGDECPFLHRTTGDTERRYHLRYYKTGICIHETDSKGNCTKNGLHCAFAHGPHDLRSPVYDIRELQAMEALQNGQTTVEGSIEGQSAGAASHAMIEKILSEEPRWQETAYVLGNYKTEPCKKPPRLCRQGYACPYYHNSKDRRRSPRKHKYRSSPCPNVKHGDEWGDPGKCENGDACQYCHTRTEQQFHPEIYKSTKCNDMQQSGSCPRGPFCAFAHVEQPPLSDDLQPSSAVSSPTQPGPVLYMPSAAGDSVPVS
Method: RNA Bind-n-Seq
Form: RNA
Matrix: in vitro
Tested at: 100 nM
Setting: RNA with constant flanks, vertebrate orthologous sites, ends assumed
Baseline: input RNA pool
Reading: higher = stronger binding
`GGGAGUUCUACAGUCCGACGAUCAGUCGAUGGAGUUACACAACACUUAAGCAGCAGGCGGAAGGCUAUCCCAGUGCGUGUUGGUAGUGACCGAGAGAGUUAUAGCUGGUCUUGCCUUGUAUUUUACCCCUUGGUUCAGGUCUCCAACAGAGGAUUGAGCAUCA` gave a bound/input enrichment of 0.376 ratio.
The bound/input enrichment of `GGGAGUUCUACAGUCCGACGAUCAAUCACUCUAAUUGUAAUCUGAAUAAAGUGUAACAUUGUGUAGCCUUUUUUUGUAUAAAAUAGACAAAUAGAAAUGGUCCAAUUAGUUUCCUUUUUAAUAUGCUUAAAAUAAGCAGGUGGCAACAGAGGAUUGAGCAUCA` is reported as 1.56 ratio.
For `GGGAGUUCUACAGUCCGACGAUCCUACUCUAUGGGCCCCGCAGAGUGGAAAUAAUGGAAGAGGAAAGUGAACAGUAAUCUACUUAGUAUUUAUGCUUAGGUGUGAAAUAAAUGUUAUUUGUUGAUCACUUCUAUAAUCCAGAGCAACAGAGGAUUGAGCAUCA`, the bound/input enrichment was 0.289 ratio.
With `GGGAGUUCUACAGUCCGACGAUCUCUCUACAAUUUUAAAGACACUUCCUUAUAAGGCACUUUGGCUCUUCAUAUAUCUCAUCCUGUUUACUUACCUGUUUUCAAAAACAGCAGUACGAACUCAGGGGACUCGCUUGGCGUGUGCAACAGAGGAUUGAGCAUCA` the bound/input enrichment was 0.452 ratio.
`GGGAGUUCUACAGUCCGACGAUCAGCAACUCAAGGAUUCAGGACUGGUUUUACAAAUGUCCCAAGCAGAUAUGGAACUAGCACUCGAGGUCAACCCCAGCCAUAAUAAACUCUAUUAUGCGUUAUUUAUUGUACAUAAGGGUACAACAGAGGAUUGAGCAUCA` gave a bound/input enrichment of 0.115 ratio.
`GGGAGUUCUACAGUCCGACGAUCAGCCACCCAAGGAUUCAGGACUGGCUUUACAAAUCUUCCCAACAGAUUCGGAACUAACGCCAGAGGCCAGCCCAGACCGUGAUACUCUCCCGUUGCGUUUUAUUUAUUGGCGUCAGAGUACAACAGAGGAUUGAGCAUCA` gave a bound/input enrichment of 0.418 ratio.
`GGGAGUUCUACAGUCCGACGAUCAUCUUAUAUUGUGGCAUAUAGUCAACAUUGAAAGUAGACCAGCUCUGCUGAUUUGAAAUUUAGAUUUUUUAAUUAUGUACUGGGGACAGGUUUUUUGUCGCUUUACAUUGCUUCCUAGUUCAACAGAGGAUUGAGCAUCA` has a bound/input enrichment of 5.22 ratio.
The bound/input enrichment of `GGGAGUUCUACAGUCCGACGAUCUAUCUUCAGGAUGAAGCUCUUACAUCAGGUAUCACGAGUCUGGAGAAUAGAUGGGUUGACUAGUUGUAUUUACAAAUUACUCUCUGUGGAUUAUAAUCCUUUGUAUACCAACAUCACAGUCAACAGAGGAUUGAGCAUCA` is reported as 0.265 ratio.

Block 3
Target: Fragile X messenger ribonucleoprotein 1, C-terminal low-complexity region (Fmr1, Mus musculus, UniProt P35922)
Method: RNA Bind-n-Seq
Form: RNA
Matrix: in vitro
Tested at: 200 nM
Setting: whole 134-nt RNA, ends assumed
Together with: 150 mM LiCl
Baseline: input library
Reading: higher = stronger binding
Library: 7-deaza-guanosine replaces G
With `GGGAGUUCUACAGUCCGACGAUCUAACUUUUGAGGAGGAUCUGAUGGAUAUGGCAGUGGACGUGGAUUUGGGGAUGGCUAUAAUGGGUAUGGAGGAGGACCUGGAGGUGGCAAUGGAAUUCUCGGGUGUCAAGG` the log2 enrichment was 0.403.
`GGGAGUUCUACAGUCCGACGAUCUUCCUCAAGUCCUGUGCUACACAUCGUAUGUACCGAAUCGGUGGGUGGUGGAAAGUAUUAUGUUACGCCGUUCGGAUCUGCACUUCCAGCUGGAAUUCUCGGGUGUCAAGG` has a log2 enrichment of 0.698.
The log2 enrichment of `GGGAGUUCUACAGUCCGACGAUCCACAGACAACACGCACCCACACAGACACAGAAAGAAGGGGUUGGGAUGGGGACAGGGUGCACAGCAGGGCGGGGUAGGACCCCAGCCCCUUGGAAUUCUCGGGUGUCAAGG` is reported as 0.454.
For `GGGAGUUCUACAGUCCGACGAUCACCAUGCAGGUGGGCAUCUUUGGGAAGUGGAGCAAGGGGGGGAUAGGGAGGGGGGUAACACUUUGGGAACAGGUGGUCCCAGGUCGUUUCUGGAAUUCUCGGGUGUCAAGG`, the log2 enrichment was 1.35.
For `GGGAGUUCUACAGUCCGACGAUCGUCCUGUGCUACACAUCGUAUGUACCGAAUCGGGCCCCCGGGCCCCCGGGGCCCCCGGGAAAGUAUUAUGUUACGCCGUUCGGAUCUGCAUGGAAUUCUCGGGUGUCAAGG`, the log2 enrichment was -3.07.
`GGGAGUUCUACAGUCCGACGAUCAGUCCUGUGCUACACAUCGUAUGUACCGAAUCGGGGUUUUUGGGGUUUGGGGAGGGGAAAGUAUUAUGUUACGCCGUUCGGAUCUGCACUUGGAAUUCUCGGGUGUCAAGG` gave a log2 enrichment of -0.924.
With `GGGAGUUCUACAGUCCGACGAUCAAGUCCUGUGCUACACAUCGUAUGUACCGAAUCGGGGUGGGGUUUUUGGGGUGGGGAAAGUAUUAUGUUACGCCGUUCGGAUCUGCACUUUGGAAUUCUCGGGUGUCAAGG` the log2 enrichment was -0.329.
The log2 enrichment of `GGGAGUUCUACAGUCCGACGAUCGUCCUGUGCUACACAUCGUAUGUACCGAAUCGGGCCCCCGGGGCCCCCGGCCCCCGGGGAAAGUAUUAUGUUACGCCGUUCGGAUCUGCAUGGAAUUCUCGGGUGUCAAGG` is reported as -2.89.

Further values, each from its own experiment
Starting sequence: viral docking peptide; KKAKRRLFTISDS; partner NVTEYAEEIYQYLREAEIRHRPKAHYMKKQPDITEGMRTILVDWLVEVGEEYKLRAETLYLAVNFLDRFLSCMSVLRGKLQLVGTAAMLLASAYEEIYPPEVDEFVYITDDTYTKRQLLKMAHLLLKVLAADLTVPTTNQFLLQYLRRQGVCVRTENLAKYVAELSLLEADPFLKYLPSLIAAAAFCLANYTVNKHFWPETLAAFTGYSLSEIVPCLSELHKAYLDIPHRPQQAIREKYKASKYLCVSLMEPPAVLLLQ
`I10A`: “normalised enrichment score” 0.0451 (CCNA1, cyclin fold, Cln2 fusion (human); yeast growth competition, sequencing; yeast; weak parent motif; baseline: not given, higher = stronger binding).

A few entries again (block 3):
`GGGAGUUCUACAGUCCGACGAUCUUCCUCAAGUCCUGUGCUACACAUCGUAUGUACCGAAUCGGUGGGUGGUGGAAAGUAUUAUGUUACGCCGUUCGGAUCUGCACUUCCAGCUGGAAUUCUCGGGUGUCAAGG` has a log2 enrichment of 0.698.
For `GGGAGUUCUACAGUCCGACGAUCACCAUGCAGGUGGGCAUCUUUGGGAAGUGGAGCAAGGGGGGGAUAGGGAGGGGGGUAACACUUUGGGAACAGGUGGUCCCAGGUCGUUUCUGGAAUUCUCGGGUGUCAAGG`, the log2 enrichment was 1.35.
